Measured values gathered from unrelated publications.
Protocols differ between the studies behind these lines. ± gives the spread as reported.

Structure (SMILES) | cell line | test | test system | conditions | scale | quantity | value
NC(COc1ccccc1C(F)(F)F)c1ccccc1 (stereo not drawn) | normal iPSC cardiomyocytes | kinetic imaging cytometry |  | 5 min, pH 7.4 |  | beating cessation concentration | 66 µM
Nc1c(C(=O)c2ccc(Br)cc2)sc(S)c1-c1nc2ccccc2s1 | BGM | cytotoxicity |  | 72 h |  | maximum non-toxic concentration | 100 µg/mL
O=c1c(-c2nc3ccccc3s2)cc2c(n1NS(=O)(=O)c1ccccc1)CCCCCC2 | FRhK-4 | trypan blue |  | 72 h |  | maximum non-toxic concentration | 140 µg/mL
COc1ccc(C(=O)/C=C/c2ccc3c(c2)OCO3)c(OC)c1 | HEK293 empty vector pcDNA3.1 | cell growth, MTT |  | 72 h, 10% FBS |  | GI50 | 11.7 ± 1.8 µM
CC(=O)OC[C@H]1O[C@@H](Sc2sc(C(=O)c3ccc(C)cc3)c(N)c2-c2nc3ccccc3s2)[C@H](OC(C)=O)[C@@H](OC(C)=O)[C@H]1OC(C)=O | BGM | cytotoxicity |  | 72 h |  | maximum non-toxic concentration | 100 µg/mL
Nc1ccc(C(=O)NN=Cc2ccc(OCC(=O)Nc3ccc(Cl)cc3)cc2)cc1 | WISH | cell viability, MTT |  | 24 h, 10% fetal bovine serum |  | IC50 | 25.9 ± 0.6 µM
FC(F)(F)c1ccnc(-c2cc(C(F)(F)F)ccn2)c1.FC(F)(F)c1ccnc(-c2cc(C(F)(F)F)ccn2)c1.[Cl-].[Cl-].[Ru+2].c1cnc2c(c1)ccc1cccnc12 | SK-MEL-28 | resazurin |  | concentration not given, normoxia, visible light |  | photocytotoxicity | inactive
CC1(C)NCCC[C@]2(C)[C@H]3CC=C4[C@@H]5C[C@@](C)(CO)CC[C@]5(C)CC[C@@]4(C)[C@]3(C)CC[C@@H]12 | C-33 A | cell viability, CellTiter-Glo |  |  |  | CC50 | 1.34 µM
Cc1[nH][n+]([Pd-2]([Br])([Br])[n+]2[nH]c(C)c(CSCc3ccccc3)c2C)c(C)c1CSCc1ccccc1 | Jurkat | cytotoxicity, 7-AAD flow cytometry |  | 24 h |  | IC50 | 0.57 ± 0.02 µM
Cc1ccc(S(=O)(=O)Nn2c3c(cc(-c4nc5ccccc5s4)c2=O)CCCC3)cc1 | BGM | trypan blue |  | 72 h |  | maximum non-toxic concentration | 130 µg/mL
CC(=O)O[C@@H]1[C@@H](OC(C)=O)[C@H](Sc2sc(C(=O)c3ccc(Br)cc3)c(N)c2-c2nc3ccccc3s2)OC[C@H]1OC(C)=O | FRhK-4 |  |  | 72 h |  | non-toxic concentration | 100 µg/mL
CCCCCCCCCCCC(=O)NCCC(=O)N[C@@H](CCCNC(=N)N)C(=O)N[C@@H](CCCNC(=N)N)C(=O)N[C@@H](CCCNC(=N)N)C(=O)N[C@@H](CCCNC(=N)N)C(=O)N[C@H](CCCNC(=N)N)C(=O)N[C@H](CCCNC(=N)N)C(=O)N[C@H](CCCNC(=N)N)C(=O)N[C@H](CCCNC(=N)N)C(=O)N[C@H](CCCNC(=N)N)C(=O)N[C@@H](CCCCNC(=S)Nc1ccc2c(c1)C(=O)OC21c2ccc(O)cc2Oc2cc(O)ccc21)C(N)=O | Jurkat | flow cytometry |  | 10 µM, 48 h, loaded 10 min at 37 °C, then washed | baseline: 0 h, higher = more retained | retained fluorescence | ~20%
CCCCCCCCCc1nc2cc(Cl)ccc2c(=O)n1CCCN | Jurkat |  | medium with 10% FBS | above 6.3 µM, 24 h |  | LDH release | ~30%
COc1ccc([C@@H]2CC(=O)c3c(O)cc(O[C@@H]4O[C@H](CO[C@@H]5O[C@@H](C)[C@H](O)[C@@H](O)[C@H]5O)[C@@H](O[C@H]5O[C@H](CO)[C@@H](O)[C@H](O)[C@H]5O)[C@H](O)[C@H]4O)cc3O2)cc1O | MRC5 | cell growth or viability, MTS |  | 100 µg/mL, 72 h |  | viability | 62.2%
COc1c2c(cc3c1[C@@H]1Oc4c(ccc(O)c4CC=C(C)C)[C@@H]1CO3)OC(C)(C)C=C2 | 3T3-L1 | MTT |  | concentration not given |  | viability | 43.1 ± 0.4%
Cc1nc(C)c(C=[N+]([O-])C(C)(C)C)nc1C | rat primary midbrain neurons | MTT |  | 30 to 300 µM, 24 h |  | cytotoxicity | not toxic
O=C(Nc1cc(F)c(F)c(F)c1)c1ccc(F)c(S(=O)(=O)N2CCC(NC(=O)c3ccc(C4CCN(C(=O)CC56CC7CC(CC(C7)C5)C6)CC4)cc3)CC2)c1 | HepAD38 | cytopathic effect | human hepatoma cells |  |  | maximum non-toxic concentration | 30 µmol/L
CC(=O)O[C@H]1CC[C@]2(C)[C@H]3CC=C4[C@@H]5CC(C)(C)CC[C@]5(C(=O)O)CC[C@@]4(C)[C@]3(C)CC[C@H]2C1(C)C | HEK293-A | cell growth or viability, SRB |  |  |  | IC50 | 19.5 µM
Cc1ccc(C(=O)c2sc(S)c(-c3nc4ccccc4s3)c2N)cc1 | FRhK-4 |  |  | 72 h |  | non-toxic concentration | 90 µg/mL
CC(=O)N[C@H]1[C@@H](OCc2cn(CC(=O)N3C[C@@H](ONC(=O)[C@@H]4C[C@H](ON5C(=O)c6ccccc6C5=O)CN4C(=O)Cn4cc(CO[C@H]5O[C@H](CO)[C@H](O)[C@H](O)[C@H]5NC(C)=O)nn4)C[C@H]3C(=O)NO[C@H]3C[C@@H](C(=O)NO[C@H]4C[C@@H](C(=O)OC(C)(C)C)N(C(=O)Cn5cc(CO[C@H]6O[C@H](CO)[C@H](O)[C@H](O)[C@H]6NC(C)=O)nn5)C4)N(C(=O)Cn4cc(CO[C@H]5O[C@H](CO)[C@H](O)[C@H](O)[C@H]5NC(C)=O)nn4)C3)nn2)O[C@H](CO)[C@H](O)[C@@H]1O | 3T3-L1 | MTS |  | concentration not given, 72 h |  | cytotoxicity | not toxic
CC(C)=CCc1cc([C@@H]2CC(=O)c3c(O)cc(O)c(CC=C(C)C)c3O2)cc(CC=C(C)C)c1O | 3T3-L1 | MTT |  | concentration not given |  | viability | 80.8 ± 1.2%
CC(=O)OC[C@H]1O[C@@H](Sc2sc(C(=O)c3ccc(Cl)cc3)c(N)c2-c2nc3ccccc3s2)[C@H](OC(C)=O)[C@@H](OC(C)=O)[C@H]1OC(C)=O | FRhK-4 |  |  | 72 h |  | non-toxic concentration | 90 µg/mL
CO[C@@H]1[C@H](O)[C@@H](COP(=O)(O)OP(=O)([S-])OP(=O)(S)OC[C@H]2O[C@@H](n3cnc4c(=O)[nH]c(N)nc43)[C@H](O)[C@@H]2O)O[C@H]1n1c[n+](C)c2c(O)nc(N)nc21 (mixture of isomers) | human immature dendritic cells | translation, item: luciferase |  |  |  | time of maximal expression | 17.75 ± 0.05 h
COc1cc(O)c(C(=O)/C=C/c2cccc3ccccc23)c(OC)c1 | HEK293 empty vector pcDNA3.1 | cell growth, MTT |  | 72 h, 10% FBS |  | GI50 | 20.6 µM

Excerpt of the above:
Structure (SMILES) | cell line | test | test system | conditions | scale | quantity | value
CCCCCCCCCCCC(=O)NCCC(=O)N[C@@H](CCCNC(=N)N)C(=O)N[C@@H](CCCNC(=N)N)C(=O)N[C@@H](CCCNC(=N)N)C(=O)N[C@@H](CCCNC(=N)N)C(=O)N[C@H](CCCNC(=N)N)C(=O)N[C@H](CCCNC(=N)N)C(=O)N[C@H](CCCNC(=N)N)C(=O)N[C@H](CCCNC(=N)N)C(=O)N[C@H](CCCNC(=N)N)C(=O)N[C@@H](CCCCNC(=S)Nc1ccc2c(c1)C(=O)OC21c2ccc(O)cc2Oc2cc(O)ccc21)C(N)=O | Jurkat | flow cytometry |  | 10 µM, 48 h, loaded 10 min at 37 °C, then washed | baseline: 0 h, higher = more retained | retained fluorescence | ~20%
CC(=O)OC[C@H]1O[C@@H](Sc2sc(C(=O)c3ccc(Cl)cc3)c(N)c2-c2nc3ccccc3s2)[C@H](OC(C)=O)[C@@H](OC(C)=O)[C@H]1OC(C)=O | FRhK-4 |  |  | 72 h |  | non-toxic concentration | 90 µg/mL
Cc1ccc(C(=O)c2sc(S)c(-c3nc4ccccc4s3)c2N)cc1 | FRhK-4 |  |  | 72 h |  | non-toxic concentration | 90 µg/mL
